# Assay results from different studies.
# Each line is one published result; not all experiments were run side by side. “And” joins repeats or separate records; there may be more than shown. ± marks the error that the study gave.
# Target: Voltage-gated inwardly rectifying potassium channel KCNH2 (KCNH2, Homo sapiens, UniProt Q12809)
# Chain of UniProt Q12809 (whole entry, looked up): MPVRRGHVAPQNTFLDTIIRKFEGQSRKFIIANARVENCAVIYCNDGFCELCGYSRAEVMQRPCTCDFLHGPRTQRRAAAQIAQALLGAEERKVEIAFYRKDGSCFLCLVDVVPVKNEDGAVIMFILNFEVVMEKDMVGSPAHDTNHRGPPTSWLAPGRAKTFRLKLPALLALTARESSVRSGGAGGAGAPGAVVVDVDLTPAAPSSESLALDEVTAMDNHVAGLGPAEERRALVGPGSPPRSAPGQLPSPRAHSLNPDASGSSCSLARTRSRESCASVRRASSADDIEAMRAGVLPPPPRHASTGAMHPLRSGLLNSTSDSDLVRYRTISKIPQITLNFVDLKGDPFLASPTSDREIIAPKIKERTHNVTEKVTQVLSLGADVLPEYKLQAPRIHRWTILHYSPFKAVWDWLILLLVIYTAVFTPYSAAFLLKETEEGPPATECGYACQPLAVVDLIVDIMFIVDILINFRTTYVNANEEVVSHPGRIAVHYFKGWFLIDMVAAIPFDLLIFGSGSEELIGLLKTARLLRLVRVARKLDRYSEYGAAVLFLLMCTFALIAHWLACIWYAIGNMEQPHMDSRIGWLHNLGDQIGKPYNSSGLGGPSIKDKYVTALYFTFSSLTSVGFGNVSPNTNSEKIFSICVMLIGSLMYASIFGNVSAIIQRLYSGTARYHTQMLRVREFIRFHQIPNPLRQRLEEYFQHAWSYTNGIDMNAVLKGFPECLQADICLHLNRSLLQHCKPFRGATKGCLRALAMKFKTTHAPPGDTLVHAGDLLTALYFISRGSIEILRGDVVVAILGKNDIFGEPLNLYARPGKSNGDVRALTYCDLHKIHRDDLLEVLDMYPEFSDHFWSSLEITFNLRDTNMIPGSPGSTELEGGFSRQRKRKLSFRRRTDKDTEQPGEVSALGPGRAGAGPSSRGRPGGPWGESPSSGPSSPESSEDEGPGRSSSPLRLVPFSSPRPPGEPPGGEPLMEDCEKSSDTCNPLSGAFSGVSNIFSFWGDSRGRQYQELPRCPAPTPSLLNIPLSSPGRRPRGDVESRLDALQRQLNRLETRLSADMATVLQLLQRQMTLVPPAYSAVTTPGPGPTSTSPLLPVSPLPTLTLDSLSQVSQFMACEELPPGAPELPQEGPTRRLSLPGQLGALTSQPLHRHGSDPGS
Structure (SMILES),assay,system,setting,how to read,endpoint,value
O=C1c2ccccc2CCN1CCCCN1CCN(c2ccccn2)CC1,"potassium current inhibition, inhibitor, PatchXpress electrophysiology",,,,Hill slope,0.65 ± 0.14
CN(C)C(=O)CN1CCN(c2cnc3c(cc(C(=O)NCc4ccc(Cl)cc4)c(=O)n3CC(=O)N3CC(C)(F)C3)n2)C1=O,,,,baseline: hERG IC50 over antiviral EC50,therapeutic index,> 48
Clc1cncc(OC[C@@H]2CN(CCN3CCc4ccccc43)CCO2)c1,"potassium current inhibition, inhibitor, PatchXpress electrophysiology",,,,Hill slope,1
CN1CCN(c2cnc3c(cc(C(=O)NCc4ccc(Cl)cc4)c(=O)n3CC(=O)N3CC(C)(F)C3)n2)C1=O,"ion current, inhibitor",,,,Hill slope,0.55
CCOc1cc(-c2nncn2C)ccc1Nc1ncc2cc(C)nc(NCC(C)(C)C)c2n1,,,10 µM,,inhibition,40.4%
Cc1ccc(C(=O)Nc2ccc3ccccc3c2)o1,"ion current, whole-cell patch-clamp",HEK-293T,10 µM,,inhibition,13.7%
CCC1=C(CC)/C(=C/NC2CCCCC2)N=C1c1ccc(C)[nH]1,whole-cell patch clamp,CHO expressing hERG,,,Hill coefficient,1.65
CC(C)(C)NCc1ccc(Nc2ccnc3cc(Cl)ccc23)cc1O,"thallium flux, blocker",,30 min,,IC50,95.3 µM
CC1(F)CN(C(=O)Cn2c(=O)c(C(=O)NCc3ccc(Cl)cc3)cc3nccnc32)C1,"ion current, inhibitor",,,,Hill slope,0.86
CN1CCC(CNc2ccc3ncc(-c4cccc(OC(F)(F)F)c4)n3n2)CC1,"blocker, thallium flux",,"10 µM, 30 min",baseline: control,response,> 50%
c1cncc(OC[C@@H]2CN(CCN3CCc4ccccc43)CCO2)c1,"potassium current inhibition, inhibitor, PatchXpress electrophysiology",,,,Hill slope,1
COc1cnc2c(cc(C(=O)NCc3ccc(Cl)cc3)c(=O)n2CC(=O)N2CC(C)(F)C2)n1,"ion current, inhibitor",,,,Hill slope,1.37
CN(C(=O)n1cnc(-c2ccc[n+]([O-])c2)c1)C1CCCCC1,,,10 µM,,inhibition,19.1%
COc1cc2c(cc1OC)C(=O)N(CCCCN1CCN(c3ccccc3OC)CC1)C2,"potassium current inhibition, inhibitor, PatchXpress electrophysiology",,,,Emax,89.8 ± 4.6%
O=C(c1ccc(F)cc1)N(Cc1ccccc1)C1CCCCC1,,,10 µM,,inhibition,24%
CN1C[C@H](COc2nccc3c(NCc4ccco4)cc(Cl)nc23)OC1=O,"potassium current, inhibitor, automated patch clamp",HEK293,concentration not given,,inhibition,no effect
CC1(C)CN(C(=O)Cn2c(=O)c(C(=O)NCc3ccc(Cl)cc3)cc3nccnc32)C1,,,,baseline: hERG IC50 over antiviral EC50,therapeutic index,2.3
O=C1c2ccccc2CCCN1CCCCN1CCN(c2ccccn2)CC1,"potassium current inhibition, inhibitor, PatchXpress electrophysiology",,,,Hill slope,1
Cc1cnc(N2CC3(CCOCC3)C2)c(C(=O)Nc2ccc(C(=O)N3CCc4cc(C(=O)Nc5c(C)cccc5F)sc4-c4ccccc43)cc2)c1,"inhibitor, patch clamp",,concentration not given,,hERG current,no inhibition
CC1(F)CN(C(=O)Cn2c(=O)c(C(=O)NCc3ccc(Cl)cc3)cc3nc(N4CCN(CC(=O)O)C4=O)cnc32)C1,,human cells,retest,,Hill slope,0.79
CC(C)c1noc2ncc(C(=O)c3ccccc3O)cc12,"ion current, inhibitor, whole-cell patch clamp",HEK293T transfected,"10 µM, pH 7.4",,inhibition,8.3% and 9.7% and 8.2% and 5.8% and 10.7%
Cc1ccc2c(c1)C(=O)[C@]1(O)CCN(c3ccc4nc(C)ccc4c3)C1=N2,safety pharmacology screen,,human,,Emax,65%
Cc1oc2ccccc2c1Cc1cc(I)c(OCC(=O)O)c(I)c1,"potassium current, activator, patch clamp",SH-SY5Y endogenous hERG,"10 µM, at 0 mV",baseline: control,activation rate acceleration,2.7 fold
CC1(F)CN(C(=O)Cn2c(=O)c(C(=O)NCc3ccc(Cl)cc3)cc3nc(N4CCOC4=O)cnc32)C1,"ion current, inhibitor",,,,Hill slope,1.41
Cc1cc(/C=C/C#N)cc(C)c1Nc1ccnc(Nc2ccc(C#N)cc2)n1,"hERG current, manual patch clamp",CHO stably expressing hERG,3 µM,,inhibition,74.8%
